Results from different studies.
Each numbered part is a random draw from the data of one study; scales do not carry over between parts.

Sample 1
Target: Histone acetyltransferase KAT6A, both winged helices, GST fusion (KAT6A, Homo sapiens, UniProt Q92794, residues 1-181)
Method: protein binding microarray
Molecule type: double-stranded DNA, one strand shown
Medium: in vitro
Concentration: not given
Notes: 8-mer, flanks averaged, mean of 2 arrays, mostly near background
Relative to: not given
Direction: higher = stronger binding
Construct (chain): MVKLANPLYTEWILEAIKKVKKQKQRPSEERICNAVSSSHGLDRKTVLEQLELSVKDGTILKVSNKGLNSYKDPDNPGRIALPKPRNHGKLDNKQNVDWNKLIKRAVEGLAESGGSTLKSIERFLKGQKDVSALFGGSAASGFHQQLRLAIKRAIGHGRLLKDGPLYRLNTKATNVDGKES
| Sequence | E-score |
| --- | --- |
| GATGAACA | -0.00928 |
| CCGACCCG | 0.245 |
| CCGCCCTA | 0.0733 |
| TACACTCA | -0.172 |

Sample 2
Target: Sal-like protein 4, full length isoform A (SALL4, Homo sapiens, UniProt Q9UJQ4, residues 1-1053)
UniProt Q9UJQ4, sequence (whole entry, looked up): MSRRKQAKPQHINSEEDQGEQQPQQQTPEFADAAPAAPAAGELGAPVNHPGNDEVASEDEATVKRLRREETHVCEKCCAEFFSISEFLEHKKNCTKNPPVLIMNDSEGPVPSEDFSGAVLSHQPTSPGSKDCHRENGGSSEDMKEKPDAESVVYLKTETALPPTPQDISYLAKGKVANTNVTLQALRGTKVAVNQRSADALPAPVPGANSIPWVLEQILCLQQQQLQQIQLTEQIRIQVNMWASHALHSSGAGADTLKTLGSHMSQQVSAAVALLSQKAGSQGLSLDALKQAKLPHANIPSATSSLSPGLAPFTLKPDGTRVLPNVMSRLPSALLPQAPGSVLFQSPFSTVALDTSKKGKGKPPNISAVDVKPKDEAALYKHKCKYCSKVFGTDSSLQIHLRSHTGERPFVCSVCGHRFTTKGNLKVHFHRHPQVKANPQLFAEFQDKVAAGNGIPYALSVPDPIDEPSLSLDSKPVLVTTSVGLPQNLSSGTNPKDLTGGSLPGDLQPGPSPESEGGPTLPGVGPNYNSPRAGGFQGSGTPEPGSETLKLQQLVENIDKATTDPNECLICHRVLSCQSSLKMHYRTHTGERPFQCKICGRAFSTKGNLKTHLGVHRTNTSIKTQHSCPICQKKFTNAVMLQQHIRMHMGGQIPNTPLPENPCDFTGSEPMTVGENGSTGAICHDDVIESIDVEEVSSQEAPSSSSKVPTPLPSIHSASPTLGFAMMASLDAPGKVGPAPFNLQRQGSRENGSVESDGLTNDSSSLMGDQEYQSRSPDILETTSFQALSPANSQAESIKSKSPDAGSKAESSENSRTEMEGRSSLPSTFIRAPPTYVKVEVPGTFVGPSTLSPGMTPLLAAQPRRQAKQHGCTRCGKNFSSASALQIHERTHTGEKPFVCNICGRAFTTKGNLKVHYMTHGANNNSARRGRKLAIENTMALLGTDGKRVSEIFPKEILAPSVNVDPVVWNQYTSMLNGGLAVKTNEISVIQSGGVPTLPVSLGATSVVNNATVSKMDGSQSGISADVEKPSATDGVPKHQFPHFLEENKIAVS
Method: universal PBM
Molecule type: double-stranded DNA, one strand shown
Medium: in vitro
Concentration: 600 nM
Notes: 8-mer, flanks averaged, mean of replicates
Direction: higher = stronger binding
| Sequence | E-score |
| --- | --- |
| AAACCTGA | 0.0444 |
| CACAAGAG | 0.0144 |
| ACGGGTAC | -0.276 |
| CTTAATTA | 0.317 |
| AGATGCGA | -0.0114 |

Sample 3
Target: Interferon regulatory factor 5, full length, phosphomimetic (IRF5, Homo sapiens, UniProt Q13568-2, residues 1-514, S451D/S453D/S456D/S462D)
Method: protein-binding microarray
Molecule type: double-stranded DNA, one strand shown
Medium: in vitro
Concentration: 940 nM top
Notes: 60-bp whole probe
Added: salmon DNA 0.4 mg/ml
Relative to: random background probes
Direction: higher = stronger binding
Constant ends, left off below: GCCTAGCAC … GTCTTGATTCGCTTGACGCTGCTG
| Sequence | fitted relative affinity |
| --- | --- |
| GACGGATTGGACTTTCGGGACGTGCTA | 0.569 z-score |
| GAAGCTTCTTTTTTATTCTAGTGCTAG | 0.713 z-score |
| TCACCTTGGGCTCTAGGACTGTGCTAG | -0.478 z-score |
| TCAACTGTGTGTTTGAGACTGTGCTAG | -0.588 z-score |
| TTAGGTCTCAGACTGGGTTAGTGCTAG | -0.282 z-score |

Mixed results
| Substance | target | test | system | conditions | scale | quantity | value |
| --- | --- | --- | --- | --- | --- | --- | --- |
| PhoQ, residues 284 288 289 292 302 303 SLANKL | PhoP, residues 12 14 15 18 19 NIMAP (Escherichia coli, UniProt P23836) | Sort-seq, measured: YFP reporter | E. coli | PhoQ-PhoP variant library, added: 10 µM Mg2+ | relative to: high Mg2+ state, higher = stronger signaling | fold induction | 0.433 |

Repeated from above (sample 3):
| Sequence | fitted relative affinity |
| --- | --- |
| TTAGGTCTCAGACTGGGTTAGTGCTAG | -0.282 z-score |
